Published values pooled from the literature.
Numbered parts are unrelated; each lists some results of a single study.
Sequence of UniProt Q9P2K8 (whole entry, unmodified, looked up): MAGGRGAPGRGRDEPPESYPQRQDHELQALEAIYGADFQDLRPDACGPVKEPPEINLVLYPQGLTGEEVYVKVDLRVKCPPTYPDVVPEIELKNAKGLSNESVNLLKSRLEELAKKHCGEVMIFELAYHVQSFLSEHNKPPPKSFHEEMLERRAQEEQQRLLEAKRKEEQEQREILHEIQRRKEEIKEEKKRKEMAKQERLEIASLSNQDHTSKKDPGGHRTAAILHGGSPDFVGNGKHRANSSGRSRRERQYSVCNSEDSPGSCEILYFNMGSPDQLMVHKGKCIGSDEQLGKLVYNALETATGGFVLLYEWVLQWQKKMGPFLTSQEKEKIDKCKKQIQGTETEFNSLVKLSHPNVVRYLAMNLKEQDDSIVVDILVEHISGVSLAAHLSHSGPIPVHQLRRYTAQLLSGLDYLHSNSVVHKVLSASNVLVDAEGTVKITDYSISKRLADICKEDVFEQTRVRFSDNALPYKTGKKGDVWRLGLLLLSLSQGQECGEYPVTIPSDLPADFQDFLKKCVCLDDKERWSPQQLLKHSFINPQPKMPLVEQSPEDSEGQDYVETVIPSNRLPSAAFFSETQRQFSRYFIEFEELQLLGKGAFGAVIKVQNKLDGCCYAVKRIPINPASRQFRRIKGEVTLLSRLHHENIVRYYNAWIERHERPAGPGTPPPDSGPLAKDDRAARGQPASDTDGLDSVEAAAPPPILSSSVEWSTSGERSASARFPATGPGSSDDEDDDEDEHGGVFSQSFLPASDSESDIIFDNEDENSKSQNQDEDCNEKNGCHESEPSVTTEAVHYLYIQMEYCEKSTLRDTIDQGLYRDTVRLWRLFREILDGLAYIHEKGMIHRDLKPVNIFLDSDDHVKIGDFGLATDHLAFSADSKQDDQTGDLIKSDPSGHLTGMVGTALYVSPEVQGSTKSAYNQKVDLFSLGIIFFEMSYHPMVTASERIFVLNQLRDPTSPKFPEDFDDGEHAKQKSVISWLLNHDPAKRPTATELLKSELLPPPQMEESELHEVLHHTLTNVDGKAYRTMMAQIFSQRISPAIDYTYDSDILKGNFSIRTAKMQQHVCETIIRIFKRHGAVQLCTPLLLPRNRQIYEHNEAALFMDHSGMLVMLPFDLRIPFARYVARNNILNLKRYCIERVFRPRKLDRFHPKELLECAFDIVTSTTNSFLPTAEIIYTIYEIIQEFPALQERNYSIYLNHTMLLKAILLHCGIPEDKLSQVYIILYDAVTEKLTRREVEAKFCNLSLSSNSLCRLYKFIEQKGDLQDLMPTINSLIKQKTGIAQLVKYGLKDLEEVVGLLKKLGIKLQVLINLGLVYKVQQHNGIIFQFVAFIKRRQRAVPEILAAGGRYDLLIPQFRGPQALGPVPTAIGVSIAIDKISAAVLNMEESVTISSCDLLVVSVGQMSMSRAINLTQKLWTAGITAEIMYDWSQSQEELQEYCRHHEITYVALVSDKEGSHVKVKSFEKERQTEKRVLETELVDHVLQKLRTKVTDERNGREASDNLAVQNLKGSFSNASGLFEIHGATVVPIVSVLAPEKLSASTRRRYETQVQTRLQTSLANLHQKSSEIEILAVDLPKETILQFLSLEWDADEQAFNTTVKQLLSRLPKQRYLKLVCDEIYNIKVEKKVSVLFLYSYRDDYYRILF
Sequence of UniProt Q86UE8 (whole entry, looked up): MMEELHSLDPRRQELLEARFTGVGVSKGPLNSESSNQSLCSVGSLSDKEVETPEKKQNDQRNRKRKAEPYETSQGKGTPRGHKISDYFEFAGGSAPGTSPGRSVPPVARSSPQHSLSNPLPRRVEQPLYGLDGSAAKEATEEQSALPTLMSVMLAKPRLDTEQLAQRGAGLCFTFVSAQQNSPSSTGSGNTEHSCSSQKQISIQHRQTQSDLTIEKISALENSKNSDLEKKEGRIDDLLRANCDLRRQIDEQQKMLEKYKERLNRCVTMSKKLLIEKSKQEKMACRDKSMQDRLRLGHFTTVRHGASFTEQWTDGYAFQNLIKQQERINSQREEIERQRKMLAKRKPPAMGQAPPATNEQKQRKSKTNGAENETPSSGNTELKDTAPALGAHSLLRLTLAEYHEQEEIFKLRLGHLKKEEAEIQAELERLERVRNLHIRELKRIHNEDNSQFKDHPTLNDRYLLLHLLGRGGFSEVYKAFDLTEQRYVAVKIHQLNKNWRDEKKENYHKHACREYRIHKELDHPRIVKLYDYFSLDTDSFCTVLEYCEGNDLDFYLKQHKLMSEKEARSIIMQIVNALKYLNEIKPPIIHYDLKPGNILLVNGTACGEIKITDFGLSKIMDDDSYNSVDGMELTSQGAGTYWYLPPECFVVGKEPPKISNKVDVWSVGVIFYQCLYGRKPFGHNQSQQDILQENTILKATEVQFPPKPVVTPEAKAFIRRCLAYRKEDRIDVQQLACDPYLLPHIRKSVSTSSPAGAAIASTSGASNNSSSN
Sequence of UniProt P20794 (whole entry, looked up): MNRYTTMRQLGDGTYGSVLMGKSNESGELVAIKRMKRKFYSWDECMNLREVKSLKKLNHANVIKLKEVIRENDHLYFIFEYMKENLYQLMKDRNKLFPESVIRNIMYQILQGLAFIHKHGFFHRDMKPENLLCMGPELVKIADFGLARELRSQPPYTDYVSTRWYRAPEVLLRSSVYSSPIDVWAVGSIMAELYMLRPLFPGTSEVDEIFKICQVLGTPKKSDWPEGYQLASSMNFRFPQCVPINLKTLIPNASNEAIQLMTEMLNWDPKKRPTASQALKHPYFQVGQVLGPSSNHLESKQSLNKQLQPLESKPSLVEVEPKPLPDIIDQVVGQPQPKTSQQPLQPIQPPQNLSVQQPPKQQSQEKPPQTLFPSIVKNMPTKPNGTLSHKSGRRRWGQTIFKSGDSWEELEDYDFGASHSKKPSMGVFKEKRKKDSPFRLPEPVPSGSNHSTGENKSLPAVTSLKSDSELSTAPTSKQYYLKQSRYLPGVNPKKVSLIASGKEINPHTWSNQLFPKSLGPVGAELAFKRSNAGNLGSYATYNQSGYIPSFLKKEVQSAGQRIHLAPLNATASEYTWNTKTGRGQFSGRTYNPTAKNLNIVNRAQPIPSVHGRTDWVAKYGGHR
Sequence of UniProt Q9BRS2 (whole entry, looked up): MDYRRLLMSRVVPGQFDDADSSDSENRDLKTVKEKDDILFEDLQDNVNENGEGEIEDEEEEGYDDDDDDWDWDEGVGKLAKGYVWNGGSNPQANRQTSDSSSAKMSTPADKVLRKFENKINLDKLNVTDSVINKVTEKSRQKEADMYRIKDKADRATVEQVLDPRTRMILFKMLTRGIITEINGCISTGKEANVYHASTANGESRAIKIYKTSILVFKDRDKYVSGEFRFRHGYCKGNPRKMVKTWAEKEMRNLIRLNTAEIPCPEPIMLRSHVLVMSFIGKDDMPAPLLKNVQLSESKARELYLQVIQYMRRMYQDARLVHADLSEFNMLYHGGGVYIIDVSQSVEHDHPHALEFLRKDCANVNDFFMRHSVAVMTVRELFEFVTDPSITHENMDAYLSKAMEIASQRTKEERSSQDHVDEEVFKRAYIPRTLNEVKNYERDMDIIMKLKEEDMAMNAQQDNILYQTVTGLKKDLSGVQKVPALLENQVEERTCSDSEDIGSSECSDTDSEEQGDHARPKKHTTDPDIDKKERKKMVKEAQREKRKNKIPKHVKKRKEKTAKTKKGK
Sequence of UniProt O60331 (whole entry, looked up): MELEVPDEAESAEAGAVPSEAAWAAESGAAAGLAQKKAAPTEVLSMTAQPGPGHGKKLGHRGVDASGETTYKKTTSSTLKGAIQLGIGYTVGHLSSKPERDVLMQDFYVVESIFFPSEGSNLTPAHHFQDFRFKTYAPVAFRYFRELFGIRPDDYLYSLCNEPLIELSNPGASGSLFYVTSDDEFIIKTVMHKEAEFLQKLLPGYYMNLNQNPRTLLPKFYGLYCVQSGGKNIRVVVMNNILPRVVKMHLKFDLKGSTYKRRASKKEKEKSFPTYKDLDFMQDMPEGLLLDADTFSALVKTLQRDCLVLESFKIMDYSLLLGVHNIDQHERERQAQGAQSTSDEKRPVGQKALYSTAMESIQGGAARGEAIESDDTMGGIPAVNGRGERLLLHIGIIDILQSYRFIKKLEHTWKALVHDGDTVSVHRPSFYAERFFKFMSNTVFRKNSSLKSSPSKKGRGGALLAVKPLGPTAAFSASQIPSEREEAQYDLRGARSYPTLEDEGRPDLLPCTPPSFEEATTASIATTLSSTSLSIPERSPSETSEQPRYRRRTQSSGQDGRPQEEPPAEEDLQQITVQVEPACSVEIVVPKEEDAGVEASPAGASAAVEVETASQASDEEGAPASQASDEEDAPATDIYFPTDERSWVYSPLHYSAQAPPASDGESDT
Sequence of UniProt Q07002 (whole entry, looked up): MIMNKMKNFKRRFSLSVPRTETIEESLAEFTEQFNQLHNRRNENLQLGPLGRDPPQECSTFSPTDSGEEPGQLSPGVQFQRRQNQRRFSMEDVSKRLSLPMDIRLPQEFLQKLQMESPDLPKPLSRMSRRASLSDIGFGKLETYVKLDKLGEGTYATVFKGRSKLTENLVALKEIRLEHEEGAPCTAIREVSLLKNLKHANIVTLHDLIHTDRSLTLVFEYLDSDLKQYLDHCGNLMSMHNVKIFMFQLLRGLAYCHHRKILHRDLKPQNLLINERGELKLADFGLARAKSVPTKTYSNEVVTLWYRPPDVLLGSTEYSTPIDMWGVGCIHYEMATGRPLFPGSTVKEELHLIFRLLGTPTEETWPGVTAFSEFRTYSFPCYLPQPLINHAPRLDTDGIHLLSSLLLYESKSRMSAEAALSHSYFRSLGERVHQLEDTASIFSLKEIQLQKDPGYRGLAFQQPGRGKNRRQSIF

Series 1 — observed: cell-free assay; method: competition with immobilised ligand; concentration: 1 µM
Compound: Cc1cc(-n2nc(Cc3cc(F)cc(C(F)(F)F)c3)nc2C)ccc1C(N)=O
| target | remaining binding |
| --- | --- |
| Serine/threonine-protein kinase tousled-like 2 (TLK2, Homo sapiens, UniProt Q86UE8) | 100% |
| Cyclin-dependent kinase 18 (CDK18, Homo sapiens, UniProt Q07002) | 100% |
| Serine/threonine-protein kinase MARK1 (MARK1, Homo sapiens, UniProt Q9P0L2) | 100% |
| Protein kinase C epsilon type (PRKCE, Homo sapiens, UniProt Q02156) | 100% |
| Platelet-derived growth factor receptor alpha (PDGFRA, Homo sapiens, UniProt P16234) | 100% |
| eIF-2-alpha kinase GCN2, C-terminal kinase domain (EIF2AK4, Homo sapiens, UniProt Q9P2K8, S808G) | 100% |
| ALK tyrosine kinase receptor (ALK, Homo sapiens, UniProt Q9UM73, L1196M) | 100% |
| Inhibitor of nuclear factor kappa-B kinase subunit beta (IKBKB, Homo sapiens, UniProt O14920) | 92% |
| Mast/stem cell growth factor receptor Kit, autoinhibited (KIT, Homo sapiens, UniProt P10721) | 100% |
| Serine/threonine-protein kinase ULK2 (ULK2, Homo sapiens, UniProt Q8IYT8) | 100% |
| Homeodomain-interacting protein kinase 4 (HIPK4, Homo sapiens, UniProt Q8NE63) | 100% |
| Serine/threonine-protein kinase MAK (MAK, Homo sapiens, UniProt P20794) | 100% |
| Serine/threonine-protein kinase RIO1 (RIOK1, Homo sapiens, UniProt Q9BRS2) | 85% |
| NT-3 growth factor receptor (NTRK3, Homo sapiens, UniProt Q16288) | 94% |
| Phosphatidylinositol 4-phosphate 5-kinase type-1 gamma (PIP5K1C, Homo sapiens, UniProt O60331) | 66% |

Series 2 — cell line: mouse MPNST tumor cells; method: high-content immunofluorescence imaging; refers to: nuclear SOX9; concentration: 10 µM; time: 12 h; notes: mean of 2 replicates; reference: DMSO control; direction: higher = more nuclear SOX9
| SMILES | nuclear SOX9 intensity |
| --- | --- |
| CC(C)(C)NS(=O)(=O)c1cncc(-c2cc(F)c3nc(N)nn3c2)c1 | 94 % of DMSO |
| CCOCCn1c(N2CCCN(C)CC2)nc2ccccc21 | 124 % of DMSO |
| N[C@@H](CCC(=O)N[C@@H](CSN=O)C(=O)NCC(=O)O)C(=O)O | 90.6 % of DMSO |
| COc1ccc(NS(=O)(=O)c2ccc(N)cc2)nn1 | 75 % of DMSO |

Series 3 — species: mouse; sample: microsomes or S9; concentration: 2 µM; time: 0.5 h
| SMILES | remaining compound [%] |
| --- | --- |
| CC(C)Cn1c(=O)c2ccc(C(=O)NC3CCCCC3)cc2n2c(=O)n(Cc3ccccc3)nc12 | 45.5 |
| CCc1[nH]nc(NCc2cc(Cl)cc(Cl)c2OC)c1C | 31 |
| CCc1ncc(CNC(=O)c2c[nH]c(=O)cc2OC)o1 | 86.1 |
| CCCS(=O)(=O)N1CCC(Oc2nccnc2N2CCOCC2)C1 (centres unmarked) | 41.6 |
| O=C(NCC(F)(F)F)c1nnn(-c2ccc(NS(=O)(=O)c3cccnc3)cc2)n1 | 71.8 |
| COc1cc(Cl)c(NC(=O)c2cc(S(=O)(=O)N3CCOCC3)cn2C)c(OC)c1 | 54.9 |

Series 4 — organism: Sarcocystis neurona; observed: parasite activity; concentration: 10 µM; time: 96 h
| Compound | activity class |
| --- | --- |
| CC(=O)OCC(=O)NCCCOc1cccc(CN2CCCCC2)c1 | inactive |
| CC(=O)/N=c1/sc(S(N)(=O)=O)nn1C | inactive |
| Nc1nc(Cl)nc2c1ncn2[C@H]1C[C@H](O)[C@@H](CO)O1 | inactive |
| CCC(=O)OCC(=O)[C@@]1(OC(=O)CC)[C@@H](C)C[C@H]2[C@@H]3CCC4=CC(=O)C=C[C@]4(C)[C@@]3(Cl)[C@@H](O)C[C@@]21C | inactive |
| CC(=O)Nc1nnc(S(N)(=O)=O)s1 | inactive |
| CC(=O)NS(=O)(=O)c1ccc(N)cc1 | inactive |
| CNS(=O)(=O)Cc1ccc2[nH]cc(CCN(C)C)c2c1 | inactive |

For quick reference, copied from above (series 2):
| SMILES | nuclear SOX9 intensity |
| --- | --- |
| CC(C)(C)NS(=O)(=O)c1cncc(-c2cc(F)c3nc(N)nn3c2)c1 | 94 % of DMSO |
| CCOCCn1c(N2CCCN(C)CC2)nc2ccccc21 | 124 % of DMSO |
| N[C@@H](CCC(=O)N[C@@H](CSN=O)C(=O)NCC(=O)O)C(=O)O | 90.6 % of DMSO |
| COc1ccc(NS(=O)(=O)c2ccc(N)cc2)nn1 | 75 % of DMSO |
